Published values of several laboratories.
Each line is one published result; not all experiments were run side by side. ± gives the spread as reported.

| Substance | test | test system | setting | scale | endpoint | value |
| --- | --- | --- | --- | --- | --- | --- |
| COc1cccc2c1C(=O)c1c(O)c3c(c(O)c1C2=O)C[C@@](O)(C(C)=O)C[C@@H]3O[C@H]1C[C@H](N)[C@H](O)[C@H](C)O1 | cytochrome c release, ELISA | BALB/cByJ female mouse liver mitochondria | 30 min | relative to: alamethicin maximal release | EC20 | 47.2 µM |
| CCc1oc2cc(OC)c(Br)cc2c1C(=O)c1cc(Br)c(O)c(Br)c1 | metabolic stability | Sprague-Dawley rat, liver microsomes | 1 µM, pH 7.4 |  | microsomal CLint | 24.8 µL/min/mg |
| QTAEELLEV | far-UV CD | peptide, Tris-HCl buffer, 100 mM NaCl | pH 8.0, room temperature |  | random coil content | 16.4% |
| CS(=O)(=O)n1cc2c(n1)CN([C@H]1CO[C@H](c3cc(F)ccc3F)[C@@H](N)C1)C2 |  | healthy male human, plasma | oral, 100 mg, fasted single dose |  | AUC(0-last) | 88.6 µM·h |
| CC1=C2C[C@H]3[C@@H](CC[C@@H]4C[C@H](NS(C)(=O)=O)CC[C@@]43C)[C@@H]2CC[C@@]2(C1)O[C@@H]1C[C@H](C)CN[C@H]1[C@H]2C |  | patients, plasma | oral, 40 mg single, day -7, cycle 1 |  | Cmax | 10.6 ng/mL |
| Cc1ccc(C(=O)c2cc(O)c(O)c([N+](=O)[O-])c2)cc1 | cytochrome c release, ELISA | BALB/cByJ female mouse liver mitochondria | 30 min | relative to: alamethicin maximal release | EC20 | > 400 µM |
| Cc1ccco1 | metabolic activation to acetaldehyde | pooled human liver microsomes | 10 min, high-affinity phase excluded, high concentrations |  | Km | 1160 µM |
| COC(=O)C[C@](O)(CCCC(C)(C)O)C(=O)O[C@@H]1C(OC)=C[C@]23CCCN2CCc2cc4c(cc2[C@H]13)OCO4 |  | CD1 mouse, large intestine | oral, 1 mg/kg, 24 h, below quantification limit 1.00 ng/mL |  | tissue concentration | not detected |
| CCN1CCN(c2ccc(Nc3cc(N(C)C(=O)Nc4c(Cl)c(OC)cc(OC)c4Cl)ncn3)cc2)CC1 | LC-MS/MS | juvenile male Crl:WI(Han) rats, plasma | oral gavage, 0.1 mg/kg/day, postnatal day 17 |  | AUC(0-t) | 28.1 ng·h/mL |
| NCCS(=O)(=O)O | cytochrome c release, ELISA | BALB/cByJ female mouse liver mitochondria | 30 min | relative to: alamethicin maximal release | EC20 | > 800 µM |
| CC/C(=C(\c1ccccc1)c1ccc(OCCN(C)C)cc1)c1ccccc1 |  | female breast cancer patients, plasma | dose not given, median of sample A patients, with: weak CYP2D6-inhibiting SSRI escitalopram or citalopram |  | Ctrough | 290 nM |
| COc1cc(CCC(=O)O)ccc1O[C@@H]1O[C@H](C(=O)O)[C@@H](O)[C@H](O)[C@H]1O |  | human, fasted baseline, cerebrospinal fluid |  |  | mean concentration | 1.7 nM |
| CCOc1ccc(Cc2cc([C@@H]3S[C@H](CO)[C@@H](O)[C@H](O)[C@H]3O)c(OC)cc2C)cc1 |  | Japanese type 2 diabetes patients, plasma | oral, 5 mg single dose, eGFR 30-44 mL/min/1.73 m^2 |  | AUC(0-last) | 2030 ± 403 ng·h/mL |
| CN1CCN(c2ccc3nc(-c4c(N)c5c(F)cccc5[nH]c4=O)[nH]c3c2)CC1 |  | human, plasma | oral, dose not given, normalised to 200 mg dose |  | AUC(0-24 h) | 3860 ± 2180 ng·h/mL |
| C[C@@H](O)[C@H]1C(=O)N2C(C(=O)O)=C(S[C@@H]3CN[C@H](C(=O)N(C)C)C3)[C@H](C)[C@H]12 |  | pig, Danish Landrace, plasma | intravenous, 1000 mg over 10 min, 450 min dosing interval, with: 0.125 µg/mL MIC | relative to: dosing interval | time above MIC | 90% |
| Cn1c(-c2ccc(C(N)=O)cc2F)nnc1C(C)(C)Oc1c(F)cc(Cl)cc1F |  | healthy young Japanese subjects, plasma | oral, 10 mg once daily, day 18, 14 days dosing |  | AUC(0-tau) mean | 1950 ng·h/mL |

Some of these lines once more:
| Substance | test | test system | setting | scale | endpoint | value |
| --- | --- | --- | --- | --- | --- | --- |
| COc1cccc2c1C(=O)c1c(O)c3c(c(O)c1C2=O)C[C@@](O)(C(C)=O)C[C@@H]3O[C@H]1C[C@H](N)[C@H](O)[C@H](C)O1 | cytochrome c release, ELISA | BALB/cByJ female mouse liver mitochondria | 30 min | relative to: alamethicin maximal release | EC20 | 47.2 µM |
| CCc1oc2cc(OC)c(Br)cc2c1C(=O)c1cc(Br)c(O)c(Br)c1 | metabolic stability | Sprague-Dawley rat, liver microsomes | 1 µM, pH 7.4 |  | microsomal CLint | 24.8 µL/min/mg |
| QTAEELLEV | far-UV CD | peptide, Tris-HCl buffer, 100 mM NaCl | pH 8.0, room temperature |  | random coil content | 16.4% |
